Experimental data from different studies.
Each numbered part is a random draw from the data of one study; scales do not carry over between parts. Changes are numbered by the printed parent chain.
Sequence of UniProt O15294 (whole entry, looked up): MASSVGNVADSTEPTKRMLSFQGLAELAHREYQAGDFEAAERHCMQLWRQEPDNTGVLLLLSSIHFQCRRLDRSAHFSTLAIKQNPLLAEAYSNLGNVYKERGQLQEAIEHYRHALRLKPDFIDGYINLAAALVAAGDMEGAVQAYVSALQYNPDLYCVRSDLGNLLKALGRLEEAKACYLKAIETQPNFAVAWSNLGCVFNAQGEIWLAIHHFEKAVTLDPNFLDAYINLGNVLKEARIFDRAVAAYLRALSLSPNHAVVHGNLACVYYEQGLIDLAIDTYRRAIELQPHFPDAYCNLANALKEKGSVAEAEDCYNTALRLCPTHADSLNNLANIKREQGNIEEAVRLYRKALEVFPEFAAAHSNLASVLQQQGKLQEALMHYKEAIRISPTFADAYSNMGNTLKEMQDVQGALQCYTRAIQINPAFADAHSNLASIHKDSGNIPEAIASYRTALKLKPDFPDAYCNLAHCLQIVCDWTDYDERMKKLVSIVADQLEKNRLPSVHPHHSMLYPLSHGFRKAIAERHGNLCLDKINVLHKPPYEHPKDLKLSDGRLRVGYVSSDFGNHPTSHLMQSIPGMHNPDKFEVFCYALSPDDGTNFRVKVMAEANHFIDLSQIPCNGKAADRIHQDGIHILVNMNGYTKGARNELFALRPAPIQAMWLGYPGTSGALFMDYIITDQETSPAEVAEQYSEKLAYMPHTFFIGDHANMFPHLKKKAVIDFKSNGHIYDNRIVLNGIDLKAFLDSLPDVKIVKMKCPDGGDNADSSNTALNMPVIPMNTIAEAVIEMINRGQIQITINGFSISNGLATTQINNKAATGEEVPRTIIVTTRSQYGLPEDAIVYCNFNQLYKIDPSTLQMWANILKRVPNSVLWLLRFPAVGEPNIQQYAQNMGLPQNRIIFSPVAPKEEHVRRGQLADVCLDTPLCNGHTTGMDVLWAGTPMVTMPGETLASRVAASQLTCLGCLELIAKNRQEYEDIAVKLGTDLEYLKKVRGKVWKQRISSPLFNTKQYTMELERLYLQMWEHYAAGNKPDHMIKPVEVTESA

Block 1
Target: Centromere-binding protein 1, full length, His-tagged (CBF1, Saccharomyces cerevisiae, UniProt P17106, residues 1-351)
Sequence of UniProt P17106 (whole entry, looked up): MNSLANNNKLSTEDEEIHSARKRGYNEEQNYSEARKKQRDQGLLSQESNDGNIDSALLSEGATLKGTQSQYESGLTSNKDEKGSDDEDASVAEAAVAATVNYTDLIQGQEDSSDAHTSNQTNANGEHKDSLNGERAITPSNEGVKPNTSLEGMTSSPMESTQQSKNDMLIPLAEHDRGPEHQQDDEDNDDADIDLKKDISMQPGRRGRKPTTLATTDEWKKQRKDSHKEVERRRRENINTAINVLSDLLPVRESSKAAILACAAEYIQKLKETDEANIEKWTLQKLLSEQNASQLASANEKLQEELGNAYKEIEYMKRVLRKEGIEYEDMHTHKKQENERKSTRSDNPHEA
Method: competition protein-binding microarray
Molecule type: double-stranded DNA, one strand shown
Matrix: in vitro
Tested at: 2 µM
Setting: whole 60-bp probe, lowest competitor level
With: Pho4 competitor, 0.05 µM
Reading: higher = stronger binding
Constant ends, left off below: … GTCTTGATTCGCTTGACGCTGCTG
Oligonucleotide	fluorescence intensity
TCACAAGAATCAATTGTATTTTTCTAGACTCGCTAA	89.6 a.u.
CATACCCAACCTTGTCCGGTGGGTGAAGATATTTGT	61.8 a.u.
AAAGCGGTAATTTCCCACGTGTTTTCACATATCTAT	1010 a.u.
AAGATAATGCTTTCACACGTGCAAAATAAAATAGTA	2570 a.u.
TTTTTTTGGCTCCATCACGCTCGTCAGTTGAGCTCG	74.8 a.u.
CAAATGGGTGGGTGGCGCGTGGCAGGGACTTCCCTA	55.2 a.u.
ACTGCCGTTGTTCATACCGTGACTCGTAGTGGCAGT	176 a.u.
CCAGTCTCTGTCTTGCGCGTGCAAATAAGTGCCGGC	103 a.u.

Block 2
Target: JUNB, bZIP domain (human)
Method: DHFR protein complementation
Matrix: yeast
Setting: single substitutions, most at no-binding floor
Reference: wild-type JUN-FOS pair
Reading: higher = stronger binding
Starting sequence: JUN, bZIP domain (human); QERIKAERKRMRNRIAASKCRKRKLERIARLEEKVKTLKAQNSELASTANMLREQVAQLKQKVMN; partner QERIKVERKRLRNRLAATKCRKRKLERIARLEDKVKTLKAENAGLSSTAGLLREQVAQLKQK
Substitution	binding fitness
M51T	-1.19 natural log
K34E	-0.823 natural log
L38E	-1.56 natural log
A40R	-1.06 natural log
E32A	-1.26 natural log
T48W	-1.46 natural log
V56G	-1.48 natural log
T48H	-1.31 natural log

Block 3
Target: CCNB2, cyclin fold, Cln2 fusion (human)
Method: yeast growth competition, sequencing
Matrix: yeast
Setting: weak parent motif
Reference: not given
Reading: higher = stronger binding
Starting sequence: PKN2 docking peptide (human); VSAVQKLDFSDTM; partner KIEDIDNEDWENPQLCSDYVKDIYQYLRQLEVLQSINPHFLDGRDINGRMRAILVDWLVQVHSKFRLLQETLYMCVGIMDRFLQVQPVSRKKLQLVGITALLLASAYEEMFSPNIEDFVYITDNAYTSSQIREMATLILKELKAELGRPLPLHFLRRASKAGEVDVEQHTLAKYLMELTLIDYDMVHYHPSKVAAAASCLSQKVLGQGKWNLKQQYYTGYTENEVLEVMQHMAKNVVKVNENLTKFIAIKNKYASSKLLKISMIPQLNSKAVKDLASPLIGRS
Substitution	normalised enrichment score
M13D	0.194
K6V	-0.000702
D11R	-0.0411
S2A	0.158
S10V	-0.0713
V1P	0.0876
M13I	0.26
F9P	-0.245

Other studies, line by line
Molecule	target	test	system	setting	scale	measurement	result
DNVYPMYQMTYKAID	UDP-N-acetylglucosamine--peptide N-acetylglucosaminyltransferase 110 kDa subunit (OGT, Homo sapiens, UniProt O15294)	binding, phage display NGS	peptide	panning round 2	reference: input library	minimum log2 enrichment ratio	3.13
